# Measured values from different studies.
# Each numbered part is a random draw from the data of one study; scales do not carry over between parts.

# Sample 1
# Target: RNA binding protein fox-1 homolog 2, RRM domain, GST-SBP tag (RBFOX2, Homo sapiens, UniProt O43251-10, residues 100-194)
# Method: RNA Bind-n-Seq
# Form: RNA
# Medium: in vitro
# Tested at: 365 nM
# Setting: natural RNA segment, single round, ends assumed
# Relative to: no-protein control
# Direction: higher = stronger binding
# All sequences stand within: GGGAGUUCUACAGUCCGACGAUC … UGGAAUUCUCGGGUGCCAA
# Target sequence (chain): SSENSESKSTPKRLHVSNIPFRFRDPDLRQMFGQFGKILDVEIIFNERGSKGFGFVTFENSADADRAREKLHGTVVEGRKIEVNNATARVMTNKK
Sequence,RBNS enrichment (R)
CUGUGGGCAAGGUCGAUGCAAUGCCUGCACUACAGGCCUGUCUUCUGUGGAUCUCUCUCCUUGGCCUUCAGUCCCUGCAGUAUUUUACUGUCAGAUAGCAUGUGGUGCCU,3.99
UUUUAAGUGUGCUUUAAAGAAAAAUAUUUUCCCCACAAGAGAAAUUUAAAUAAAGAAUUUUAUUUGUUAUGGUUUGUUUUAGUAUGUUUUUGUGUCCAUGAUGAGAUUAA,4.21
CCCAAAGACACGGGUAUUCCAGACCCGGUCUGCCUCCCUACCAGCCUUCUUAGGCUCUGUCGUGUGACUUUUCAGAUUAUAAAUGCCACAGCACGUGCUGUUUGAGAAGA,0.64
UCUUCAUGUUUCCACUCAUCCUUCCUUUGGACCCAUCGGGGAAAAAGUCUAAAUUGGAGAUCCAGUUUUAGAAGUGCUUUCUGGGAAGCAUUUAAUGGGAUUAGCUGUAG,0.338
CCAAUGCUGUAAAUAUGGGGAUAGUCUGGGUCAGGCCAAUCACUUCCUCUCUCACCCAUUUCGCUUCCAAGACCAUUUGUAGUGAGCGGGUGGAUGCUGUGCUACGUGUG,0.651
AUGUUAAUCCAUGCUACCUAAAGUAAAGACAGGCUGCUUGGCCAAGUGGACACACUUGAGAAACAGUGGAGGGAGAGUGUGAAAGCCACACGCUUGCCCUGGUUGGUCCU,0.358
UGUAAUGGUUCAGCUAAUCCCAUGGCGAGAUGGGGGCUCACUCCGGAGGAGGAGCCAGGCAGCAGGGCCUUCCUGACCAACAGCCAGCUCUGUCCUUCCCCCCAGGAAAC,0.372
GGAACAGGUACCUUGAGAGUGAGAGCUACCCAUUGCCUGUGGCCUAAAUCUGCUGUGCAGGUUGGGCUGGUCAUACUGUCAUGAUUUCAUUAACAGCCUGGGUGAACAUG,1.18
UCGGUUCACUGUAGAUCCAGUUCUUCCAGCCGCUUCAGCACUGAGGCGCCAUGAAUGCGGUUUCUCUGUGUAGCUCUGAGAGUUCGUUUCAUAGAACACAACACUUGAGC,0.272
GGCCUUCUCAGGCCUGGCCCUUUUCAUCAGAUACAAGGGCCAGGAGACCAGACUCUUGCUUCUGAUCUUCCUUCAGCCCUCAGUGUGGGAAUAAAUUAAGUUUCUCAACA,0.225
CAUCCCCACUGCUAACUUGGGGCUGGGGCCUCCCUUUCACAGAUACCUUGGGUUUGUGCAUGUUUUCUGCUGGGUGGGAUCUGAGGGUGAUUUCUCUUUUACCUGUACAU,5.62
UCACUGUCCUCAGGAGCCAGGCAUCCUCCCUGGGUGCCCACUCUUUGCAUCUGCUUUUCCUGUAAGACUCCACUGUGCACUGGCAUCCAGAGAAGGUGUCUUUGGAGUUC,4.18

# Sample 2
# Target: Runt-related transcription factor 1 (RUNX1, Homo sapiens, UniProt Q01196, residues 1-453, full length assumed)
# UniProt Q01196, sequence (whole entry, looked up): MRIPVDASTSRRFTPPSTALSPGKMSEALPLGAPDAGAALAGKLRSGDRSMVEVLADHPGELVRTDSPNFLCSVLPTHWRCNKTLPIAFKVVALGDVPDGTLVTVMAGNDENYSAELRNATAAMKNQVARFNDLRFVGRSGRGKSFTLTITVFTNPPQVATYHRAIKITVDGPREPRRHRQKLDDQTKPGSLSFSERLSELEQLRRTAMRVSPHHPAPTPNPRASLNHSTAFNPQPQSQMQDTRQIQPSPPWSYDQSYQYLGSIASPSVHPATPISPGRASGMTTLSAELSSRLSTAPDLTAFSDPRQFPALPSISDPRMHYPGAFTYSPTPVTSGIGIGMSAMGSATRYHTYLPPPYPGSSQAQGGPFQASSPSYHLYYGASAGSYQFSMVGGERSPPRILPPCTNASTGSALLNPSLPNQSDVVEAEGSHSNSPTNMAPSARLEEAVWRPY
# Method: protein-binding microarray
# Form: double-stranded DNA, one strand shown
# Medium: in vitro
# Tested at: not given
# Setting: k-mer, scored over probes, only values ≥0.25
# Direction: higher = stronger binding
Sequence,E-score
CCACGAA,0.313
ATTGTGG,0.307
AACCGCC,0.274
GAACCGC,0.333
ATTTGCG,0.321
GTTATAA,0.288
AGCCGCA,0.27
ACCGCGT,0.275
TCCCACA,0.309
AAACCGC,0.478
ACAAACC,0.312
GCGGTGA,0.298
GTGGTCA,0.314
AAAACCA,0.265
CCACCGC,0.269
GACCACA,0.425
GGGAAGA,0.281
CGGTTAA,0.293
CACCACA,0.357
CACAAAC,0.324
CCCGCAA,0.331
TGCGGAA,0.269
ATACCGC,0.299
TACCGCA,0.48

# Sample 3
# Target: Interferon regulatory factor 5, full length, phosphomimetic (IRF5, Homo sapiens, UniProt Q13568-2, residues 1-514, K96S/S451D/S453D/S456D/S462D)
# Method: protein-binding microarray
# Form: double-stranded DNA, one strand shown
# Medium: in vitro
# Tested at: 250 nM
# Setting: 60-bp whole probe
# With: salmon DNA 0.4 mg/ml
# Relative to: random background probes
# Direction: higher = stronger binding
# All sequences stand within: GCCTAGCAC … GTCTTGATTCGCTTGACGCTGCTG
Sequence,log fluorescence
GCCGGTCTCCTTTTCCTGACGTGCTAG,0.0607 z-score
GACGATCTCAGAATCGAGACGTGCTAG,0.0823 z-score
GACGATATCTGTTTCGAGACGTGCTAG,4.3 z-score
TTAGGTTTCGGGTATCCGTTAGTGCTA,8.91 z-score
GACAGTATCGGTCTCGGGACGTGCTAG,7.79 z-score
TCAGGTATCCTTCTCCTTTAGTGCTAG,0.424 z-score
ACAGGAGTGTTTCTCAGTTTGTGCTAG,0.211 z-score
AACGGTTTCGGGACTGGGGACGTGCTA,5.06 z-score
TCATCTAAGGATTTCAGACTGTGCTAG,0.319 z-score
GCTTCTATGTAGTTGATGAAGTGCTAG,0.158 z-score
GACGGTTTCGACTTTCGGGTCGTGCTA,9.02 z-score
TCAATTCCAGGGTTTTATACTGTGCTA,0.287 z-score
CAGTTAATGAAAATTCTAATTGTGCTA,0.749 z-score
GACGGTTTACTACTGCTGACGTGCTAG,-0.0279 z-score
CCTGGACGGGAGTGCGGTGCGTGCTAG,-0.716 z-score
TCATGTGTGTGTTTGTGACTGTGCTAG,-0.132 z-score

# Sample 4
# Target: Histone acetyltransferase KAT6A, both winged helices, GST fusion (KAT6A, Homo sapiens, UniProt Q92794, residues 1-181)
# Method: protein binding microarray
# Form: double-stranded DNA, one strand shown
# Medium: in vitro
# Tested at: not given
# Setting: 8-mer, flanks averaged, mean of 2 arrays, mostly near background
# Relative to: not given
# Direction: higher = stronger binding
# Construct (chain): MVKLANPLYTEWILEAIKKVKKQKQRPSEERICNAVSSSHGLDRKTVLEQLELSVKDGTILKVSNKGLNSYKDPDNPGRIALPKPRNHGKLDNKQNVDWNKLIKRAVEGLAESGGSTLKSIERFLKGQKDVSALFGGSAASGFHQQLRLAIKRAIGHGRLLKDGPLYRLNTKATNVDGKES
Sequence,E-score
AAATTAAG,-0.102
GTAAAATA,-0.0787
ATACTAAC,-0.104
GCTATTAA,-0.0132
GACGGCGA,0.195
ATTAGCAC,-0.0264
CGATCCCA,-0.0383
ATATGATA,0.0238
GTCTACAC,-0.027
GAATATGA,-0.0787
AGTGGTTC,-0.018
CTAGGTTA,-0.119
CACGGCCC,0.172
GGCCCGCA,0.179
AGTCGGAA,0.149
ATGTGTCA,-0.0941
ACTTACGA,-0.0465
CATGTCAC,0.0958
CATAGCAA,-0.155
ATCAGCTA,-0.154

# Sample 5
# Target: RING finger protein unkempt homolog, zinc fingers 1-6, SBP tag (UNK, Homo sapiens, UniProt Q9C0B0, residues 30-357)
# UniProt Q9C0B0, sequence (30-357, looked up): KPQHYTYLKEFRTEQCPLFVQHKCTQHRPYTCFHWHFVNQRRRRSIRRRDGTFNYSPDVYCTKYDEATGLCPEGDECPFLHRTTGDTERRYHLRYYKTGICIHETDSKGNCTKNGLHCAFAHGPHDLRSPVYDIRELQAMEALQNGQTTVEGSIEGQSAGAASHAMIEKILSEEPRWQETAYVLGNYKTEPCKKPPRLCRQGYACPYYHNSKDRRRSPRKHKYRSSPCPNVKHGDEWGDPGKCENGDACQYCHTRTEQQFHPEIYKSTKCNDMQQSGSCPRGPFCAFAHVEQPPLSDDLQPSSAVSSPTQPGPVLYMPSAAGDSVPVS
# Method: RNA Bind-n-Seq
# Form: RNA
# Medium: in vitro
# Tested at: 100 nM
# Setting: RNA with constant flanks, vertebrate orthologous sites, ends assumed
# Relative to: input RNA pool
# Direction: higher = stronger binding
# All sequences stand within: GGGAGUUCUACAGUCCGACGAUC … CAACAGAGGAUUGAGCAUCA
Sequence,bound/input enrichment
GUAUCAGUAGACUUACAAAUACUAAAGUUGCAGUUGAAAGGAUAUCCAAGUAUGUGUUGGUAGUUACUAAAAGAAUUCUAGCUGUUAUUGCCUUGUAUUUAUAGCCCUUGUUUCAGGUUU,0.599 ratio
CAUUGAACCCUGCUGUAUAAUAAACAAUCUUAGACAUUUAUCAACUGUUGAUACAAAUGUUAGUCCCUAACCACUUUUUAUAUGUUUUAAAUUUUUGAAAUUCAAGUGUACCUGCCAUAA,2.43 ratio
AUCCCUCAGUGACAGUAUGCCAUCUGUAGCAGAUUCCCACUCUAGUCAUUUUUCUGAAUUUAGUUGUUCUGACCUAGAAAGCAUGAAAACUUCUUGUAGUCAUGGUUCCAGUGAUUAUCA,3.32 ratio
UCCCGGCAGCGCCAGCGCGGGUAGCCACCCUUCUCACACUGCUCUGUCUUUAUUUUAUUUUCCUCAGGACUGACCCUGAGGCUCCAGCUUUUGUGGUUCAUCUCGUAUUUAUUUUAUCUU,1.31 ratio
CCUGUGUAGCAAUUAGAUGAUCUCCCCCCACCAUUUCCUUCGAAAAAAGAAAUGCCAAAAUAGAUUUCUUACCCAUCUGAUUGGACUCUUCUGGGUUUAUUAUUAUUUUUUAUAUAUGCA,2.93 ratio
CCUGUGCAGCAAUUAGAUAUGCUCCCCCCACCUUUUCUUUCAAGAAAAUAAAUGCCCAAAUAGAUUGCUUACCCAUCUGAUUGUACUGUUCUGGGUUUACUAUUAUUUUUUACGUAUGUG,1.59 ratio
UGGGGACAUACUCCAGGGAGCUGCCGGGCGCUUAGCGUUGUUUGAUUUAUGACCUUGACAUGGUAGGUAGGCUUGUUUUUUUUUUUAAUUUAAAAAUAUUGACUUAUUCACAAAAAUUUA,1.32 ratio
GCAUUUUUAUCUCGAUGGUUUUGUUUUUUUAAUUUCUUUCUAGUCCUUUUUUACAUGGUCGUCUGUCUGUCUGUCUGUCACAUUUCCUUCUCAGGCGAAGGGCUAGAGUUAAAAAAAAAC,0.667 ratio
AAUCAUUUUUUAAUUUUAUGUAUACAUGGUCUAGUCAUGUGUUUUCUUACAGUUUGUCUAUUUGUCUGUACAUCUGUCUGUCAUGUUUCCUUCUCAGGCGAAGGGCUAGAGUUUUACAAA,1.24 ratio
GUGUGUGGGGUAGCCUUGGCCCCUGCCUUGGCCUUGCCUCUCUUCCCUGUCACCUGCCCCUAGUUAUUUUUUUUUUGACCACCACGUGAUUAUGGUCGGUGCUGCCUCCCCCCCGACCUG,11 ratio
UGAGGGAGAGAUUUCUGUGCUUUCUCAUAUUUAAUUUGCUGUUUUUAAGAUAUUCCAACCUAGAGUUUUCGAUGGAACUGAUAUAUUGACAGUUCUCACCGAAGUCCUUUUAUAAAGAAU,0.834 ratio

# Excerpt of the above (sample 2):
Sequence,E-score
GCGGTGA,0.298
GTGGTCA,0.314
AAAACCA,0.265
CCACCGC,0.269
GACCACA,0.425
GGGAAGA,0.281
CGGTTAA,0.293
CACCACA,0.357
CACAAAC,0.324
